# Results pooled from the literature.
# Protocols differ between the studies behind these lines. Several values in a cell are separate wells, animals, samples, runs or records.
# Sequence of UniProt Q71U36 (whole entry, looked up): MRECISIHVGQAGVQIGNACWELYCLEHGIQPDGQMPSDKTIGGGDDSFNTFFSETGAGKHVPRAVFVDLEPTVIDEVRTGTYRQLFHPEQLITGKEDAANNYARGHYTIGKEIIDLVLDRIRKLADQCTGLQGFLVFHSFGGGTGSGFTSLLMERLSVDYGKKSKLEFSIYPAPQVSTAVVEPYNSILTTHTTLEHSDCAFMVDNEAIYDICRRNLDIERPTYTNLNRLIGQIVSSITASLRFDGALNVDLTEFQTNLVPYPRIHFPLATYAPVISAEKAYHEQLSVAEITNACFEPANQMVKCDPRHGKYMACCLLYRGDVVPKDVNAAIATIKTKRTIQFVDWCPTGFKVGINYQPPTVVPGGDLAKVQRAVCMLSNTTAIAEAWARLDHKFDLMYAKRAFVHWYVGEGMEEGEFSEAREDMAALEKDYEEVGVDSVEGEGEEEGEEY
# Sequence of UniProt Q9NZH0 (whole entry, looked up): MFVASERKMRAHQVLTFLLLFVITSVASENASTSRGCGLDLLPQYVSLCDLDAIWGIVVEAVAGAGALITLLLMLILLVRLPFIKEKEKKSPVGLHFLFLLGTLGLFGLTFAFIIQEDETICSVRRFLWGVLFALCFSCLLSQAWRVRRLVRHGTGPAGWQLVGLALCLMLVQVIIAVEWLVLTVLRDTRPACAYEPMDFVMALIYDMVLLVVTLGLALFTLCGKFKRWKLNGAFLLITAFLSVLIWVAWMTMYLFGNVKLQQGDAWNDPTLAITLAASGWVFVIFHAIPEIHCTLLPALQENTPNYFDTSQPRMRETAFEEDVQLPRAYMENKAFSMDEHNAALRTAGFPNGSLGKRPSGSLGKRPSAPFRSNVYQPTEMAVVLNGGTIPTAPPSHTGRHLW
# Sequence of UniProt P50406 (whole entry, looked up): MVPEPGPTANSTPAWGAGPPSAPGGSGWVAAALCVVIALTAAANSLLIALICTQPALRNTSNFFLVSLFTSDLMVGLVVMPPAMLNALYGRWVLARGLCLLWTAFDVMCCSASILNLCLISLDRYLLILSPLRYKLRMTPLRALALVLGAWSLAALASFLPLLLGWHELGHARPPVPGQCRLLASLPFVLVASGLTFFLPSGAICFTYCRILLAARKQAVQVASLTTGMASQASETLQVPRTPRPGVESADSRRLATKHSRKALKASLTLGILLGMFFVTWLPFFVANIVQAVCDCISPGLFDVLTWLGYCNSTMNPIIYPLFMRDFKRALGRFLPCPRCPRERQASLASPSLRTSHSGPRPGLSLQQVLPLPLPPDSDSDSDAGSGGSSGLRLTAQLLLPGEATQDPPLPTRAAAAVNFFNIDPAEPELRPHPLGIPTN
# Sequence of UniProt P53778 (whole entry, looked up): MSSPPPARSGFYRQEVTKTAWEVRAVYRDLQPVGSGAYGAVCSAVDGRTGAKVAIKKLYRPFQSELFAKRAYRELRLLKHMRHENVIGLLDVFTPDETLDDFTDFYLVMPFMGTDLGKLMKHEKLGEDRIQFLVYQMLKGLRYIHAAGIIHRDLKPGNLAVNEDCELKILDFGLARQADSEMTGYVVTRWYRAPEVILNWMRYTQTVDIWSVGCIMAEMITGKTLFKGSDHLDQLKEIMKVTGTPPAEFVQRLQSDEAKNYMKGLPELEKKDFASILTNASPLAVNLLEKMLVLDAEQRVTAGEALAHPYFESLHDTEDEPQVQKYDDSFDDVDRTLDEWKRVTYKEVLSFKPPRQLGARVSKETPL
SMILES,tested on,assay,test system,conditions,how to read,measurement,result
CO[C@H]1C[C@@H]2CC[C@@H](C)[C@@](O)(O2)C(=O)C(=O)N2CCCC[C@H]2C(=O)O[C@H]([C@H](C)C[C@@H]2CC[C@@H](OC(=O)NCCOCCOCCOCCOCCOCCOCCOCCOCCC(=O)N3CCc4cc(Cn5nc(-c6ccc7oc(N)nc7c6)c6c(N)ncnc65)ccc4C3)[C@H](OC)C2)C[C@@H](O)[C@H](C)/C=C(\C)[C@@H](O)[C@@H](OC)C(=O)[C@H](C)C[C@H](C)/C=C/C=C/C=C/1C,,,patients with advanced solid tumours,"intravenous, 8 mg weekly, grade ≥3",,incidence of nausea TEAE,6.3%
C[C@H]1CN(c2n[nH]c3nc(N[C@H]4CC[C@H](NS(=O)(=O)CCC(F)(F)F)CC4)ncc23)CCO1,"Tubulin alpha-1A chain (Homo sapiens, UniProt Q71U36)","Kinobeads competition, item: TUBA1A",,"0.8 µM, unit not given",reference: vehicle,remaining binding,1.17
CN1CCN(C2(CNC3CCN(c4cccc(-c5cc6cc(F)ccc6[nH]5)c4)CC3)CCC2)CC1,SK-MEL-2,,,,,CC50,7.23 µM
CC[C@H](C)[C@@H]1NC(=O)[C@@H]2CCCN2C(=O)[C@H](CC(C)C)NC(=O)[C@H](CC(C)C)NC(=O)CNC(=O)[C@@H](NC(=O)[C@@H](NC(=O)[C@H](CC(=O)O)NC(=O)CNC(=O)[C@@H](NC(=O)[C@H](C)NC(=O)CNC(=O)[C@H](CCCCN)NC(=O)[C@H](CC(C)C)NC(=O)[C@H](CC(C)C)NC(=O)[C@H](CCCCN)NC(=O)CNC(=O)[C@@H](NC(=O)[C@@H](N)CC(C)C)C(C)C)C(C)C)C(C)C)CSSC[C@@H](C(=O)O)NC1=O,,"RNA-seq, item: Spn mRNA","mouse traumatic brain injury, frontal cortex and hippocampus",dose not given,reference: TBI plus compound vs TBI,log2 fold change,-1.86
COc1ccc(-n2nc(C(C)=O)s/c2=N\N=C(/C)c2ccc(NC(C)=O)cc2)cc1,MCF7,,,5 µM,,toxicity,93.7% and 78.8%
"COCCC1=C(C(=O)OC)C(c2ccc(Cl)cc2C)C2=C(CC(c3ccc(OC)c(OC)c3)OC2=O)N1 (single isomer, unassigned)",J774.A1,cytotoxicity,,,,EC50,> 20 µM
Nc1ncnc2c1ncn2[C@@H]1O[C@@H]2COP(=O)(O)O[C@H]3[C@@H](O)[C@H](n4cnc5c(=O)[nH]cnc54)O[C@@H]3COP(=O)(O)O[C@H]2[C@H]1O,HFF-1,"RNA sequencing Reactome analysis, item: Reactome R-HSA-68877 mitotic prometaphase",,with: West Nile virus infection,"reference: West Nile virus infected cells, upregulated pathway",pathway fold enrichment,3.39
N=C(N)c1ccc(OCc2ccc(Br)cc2COc2ccc(C(=N)N)cc2)cc1,Escherichia coli,,mcr-2 polymyxin-resistant,"20 h, compound alone",,MIC,200 µg/mL
C[C@@H](O)[C@@H](CO)NC(=O)[C@@H](CCCNC(=N)N)NC(=O)[C@@H]1CCCN1C(=O)[C@@H]1CSSC[C@H](NC(=O)[C@H](Cc2ccccc2)NC(=O)CN2CCN(CC(=O)O)CCN(CC(=O)O)CCN(CC(=O)O)CC2)C(=O)N[C@@H](Cc2ccc(O)cc2)C(=O)N[C@@H](Cc2ccccc2)C(=O)N[C@@H](CCC(N)=O)C(=O)N[C@@H](CC(N)=O)C(=O)N1 [gallium-68 labelled],,,"Wistar rat, healthy, urinary bladder","intravenous, 8 MBq, 120 min",,tissue uptake,0.06 %ID/g
Oc1ccc2c3c1O[C@H]1[C@@H](O)CC[C@@]4(O)[C@@H](C2)N(CC2CCC2)CC[C@]314,"G-protein coupled receptor family C group 5 member B (GPRC5B, Homo sapiens, UniProt Q9NZH0)","β-arrestin recruitment, TANGO luminescence, item: GPRC5B",,concentration not given,reference: basal luminescence,log2 fold change,0.336
COc1c(CCC[P+](c2ccccc2)(c2ccccc2)c2ccccc2)cc2c(c1OC)OCO2.[I-],SK-MEL-2,SRB,,,,GI50,-5.52 log M
CCCCC1(CCCC)CN(c2ccccc2)c2cc(SC)c(OCC(=O)N[C@@H](C(=O)NCC(=O)O)c3ccccc3)cc2S(=O)(=O)C1,,item: LDL cholesterol,"human, serum","20 mg once daily, day 1",,serum LDL-C,99.9 mg/dL
CN1CCN(c2cc(-c3ccncc3)c(-c3ccc4ccccc4c3)nn2)CC1,"Sphingosine 1-phosphate receptor 1 (S1PR1, Homo sapiens, UniProt P21453)","antagonist, FLIPR",,10 µM,,inhibition,3.3%
COc1ccc(N2C(=O)N(c3c(C)cccc3Cl)Cc3cnc(Nc4ccc(C5CCN(C)CC5)cc4OC)nc32)nc1,"Mitogen-activated protein kinase 12 (MAPK12, Homo sapiens, UniProt P53778)","kinase activity, inhibitor",,"0.5 µM, kinase P38-GAMMA",,inhibition,2.79%
CN1C(=O)C(C2C3=C(CC(C)(C)CC3=O)Oc3c(O)cccc32)C(=O)N(C)C1=O (centres unmarked),3T3-L1 adipocytes,"qPCR, item: HSL",,"IC20, 14 days",reference: untreated mature adipocytes,mRNA level,increased
C[C@]1(CO)Cc2ncn(-c3ccc(C#N)c(Cl)c3)c2C(=O)O1,,"aldosterone synthesis, inhibitor, item: potassium","healthy Japanese adults, urine","80 mg, 0-24 h after first dose, multiple rising dose",,urinary excretion,25.9 mmol
C#CC[C@@H](N)C(=O)N[C@H](CO)C(=O)N[C@@H](C(=O)N[C@H](CO)C(=O)N[C@H](CCC(=O)O)C(=O)N[C@@H](C(=O)N[C@H](CCC(N)=O)C(=O)N[C@H](CC(C)C)C(=O)N[C@H](CCSC)C(=O)N[C@H](Cc1c[nH]cn1)C(=O)N[C@H](CC(N)=O)C(=O)N[C@H](CC(C)C)C(=O)NCC(=O)N[C@H](CCCCN)C(=O)N[C@H](Cc1c[nH]cn1)C(=O)N[C@H](CC(C)C)C(=O)N[C@H](CC(N)=O)C(=O)N[C@H](CO)C(=O)N[C@H](CCSC)C(=O)N[C@H](CCC(=O)O)C(=O)N[C@H](CCCNC(=N)N)C(=O)N[C@@H](C(=O)N[C@H](CCC(=O)O)C(=O)N[C@H](Cc1c[nH]c2ccccc12)C(=O)N[C@H](CC(C)C)C(=O)N[C@H](CCCNC(=N)N)C(=O)N[C@H](CCCCN)C(=O)N[C@H](CCCCN)C(=O)N[C@H](CC(C)C)C(=O)N[C@H](CCC(N)=O)C(=O)N[C@H](CC(=O)O)C(=O)N[C@@H](C(N)=O)C(C)C)C(C)C)[C@H](C)CC)C(C)C,hemagglutinin influenza A/California/07/2009 H1N1,,,,,IC50,> 250 µM
CC[C@H](C)[C@H](NC(=O)[C@H](C)NC(=O)[C@H](CCCCN)NC(=O)[C@H](CC(C)C)NC(=O)[C@H](C)NC(=O)[C@@H](NC(=O)[C@H](Cc1c[nH]cn1)NC(=O)[C@H](CC(C)C)NC(=O)[C@@H](NC(=O)[C@@H](NC(=O)[C@H](CCCCN)NC(=O)[C@H](C)NC(=O)[C@H](C)NC(=O)[C@H](CO)NC(=O)[C@H](CCCCN)NC(=O)[C@H](Cc1ccccc1)NC(=O)[C@@H](NC(=O)[C@H](CCCCN)NC(=O)[C@H](CC(C)C)NC(=O)[C@H](Cc1ccccc1)NC(=O)[C@H](CO)NC(=O)[C@H](CCCCN)NC(=O)[C@H](Cc1c[nH]c2ccccc12)NC(=O)[C@H](CCCCN)NC(C)=O)[C@@H](C)O)[C@@H](C)O)C(C)C)[C@@H](C)O)C(=O)N[C@@H](CO)C(=O)N[C@@H](CO)C(N)=O,Pseudomonas aeruginosa,,IPM-R,81 strains,,MIC50,8 µg/mL
COc1cc(CCC[P+](c2ccccc2)(c2ccccc2)c2ccccc2)c(OC)c2c1OCO2.[I-],SK-MEL-2,SRB,,,,GI50,-5.72 log M
COc1ccc2c(ccc3oc([N+](=O)[O-])cc32)c1,Mycobacterium bovis BCG,,1173 P2,,,MIC90,0.125 µg/mL
CC[C@H](C)[C@H](NC(=O)[C@H](Cc1ccccc1)NC(=O)[C@H](CCC(=O)O)NC(=O)[C@H](CCCNC(=N)N)NC(=O)[C@H](C)NC(=O)[C@H](C)NC(=O)[C@H](CCC(N)=O)NC(=O)[C@H](CCC(=O)O)NC(=O)[C@H](CCC(=O)O)NC(=O)[C@H](CC(C)C)NC(=O)[C@H](Cc1ccc(O)cc1)NC(=O)[C@H](CO)NC(=O)[C@H](CO)NC(=O)[C@@H](NC(=O)[C@H](CC(=O)O)NC(=O)[C@H](CO)NC(=O)[C@@H](NC(=O)[C@H](Cc1ccccc1)NC(=O)[C@@H](NC(=O)CNC(=O)[C@H](CCC(=O)O)NC(=O)[C@H](C)NC(=O)CCc1c[nH]cn1)[C@@H](C)O)[C@@H](C)O)C(C)C)C(=O)N[C@@H](C)C(=O)N[C@@H](Cc1c[nH]c2ccccc12)C(=O)N[C@@H](CC(C)C)C(=O)N[C@H](C(=O)N[C@@H](CCCNC(=N)N)C(=O)NCC(=O)N[C@@H](CCCNC(=N)N)C(=O)N[C@@H](CCCCNC(=O)COCCOCCNC(=O)COCCOCCNC(=O)CC[C@H](NC(=O)CCCCCCCCCCCCCCCCC(=O)O)C(=O)O)C(=O)NCC(=O)NCC(=O)N[C@@H](CO)C(=O)N[C@@H](CCCCNc1c(NCCCCCN(O)C(=O)CCC(=O)NCCCCCN(O)C(=O)CCC(=O)NCCCCCN(O)C(C)=O)c(=O)c1=O)C(=O)O)C(C)C [zirconium-89 labelled],,gamma counting,"rat, colon content","intravenous, 3 nmol/kg, 168 h",,tissue uptake,0.05 %ID/g
O=C1c2c(O)c(=O)ccn2N([C@@H]2c3ccccc3SCc3c2ccc(F)c3F)[C@@H]2COCCN12,influenza A virus,,"A/WSN/33 (H1N1), BALB/c mouse, lung","subcutaneous, 0.5 mg/kg every 6 h, 24 h",,lung virus titre,2.67 log10 TCID50/mL
COc1cc(Nc2ncc(F)c(Nc3ccc4c(n3)NC(=O)C(C)(C)O4)n2)cc(OC)c1OC,"5-hydroxytryptamine receptor 6 (HTR6, Homo sapiens, UniProt P50406)",,,,,IC50,> 10 µM
COc1cc2c(Oc3ccc4[nH]c(C)cc4c3F)ccnc2cc1OCC1(N)CC1,,,paediatric recurrent refractory sarcoma,10 mg,,grade 3 Fever,0%
CC(C)N1CCC(NC2CCN(c3cccc(-c4cc5cc(F)ccc5[nH]4)c3)CC2)CC1,SK-MEL-2,,,,,GI50,1.84 µM
CCCCCCCCCC(=O)CC(=O)N[C@H]1CCOC1=O,ExpR1 (Pectobacterium carotovorum),"cellulase activity, antagonist","Pectobacterium carotovorum, single-ExpR1 strain","5 µM, 4 h, with: OHHL 5 µM",,inhibition,85%
C#CC[C@@H](N)C(=O)N[C@H](CCC(N)=O)C(=O)NCC(=O)N[C@H](CC(C)C)C(=O)NCC(=O)N[C@H](CC)C(=O)N[C@H](CC(=O)O)C(=O)N[C@H](CCC(=O)O)C(=O)N[C@H](CC(N)=O)C(=O)N[C@H](CC(C)C)C(=O)N[C@H](CCC(N)=O)C(=O)NCC(=O)N[C@H](Cc1ccccc1)C(=O)N[C@H](C)C(=O)N[C@@H](C(=O)N[C@H](C)C(=O)N[C@@H](C(=O)N[C@H](CCCCN)C(=O)N[C@H](CCSC)C(=O)NCC(=O)N[C@H](C)C(=O)N[C@H](Cc1ccc(O)cc1)C(=O)N[C@H](CCCCN)C(=O)N[C@H](C)C(=O)N[C@H](Cc1c[nH]c2ccccc12)C(=O)O)C(C)C)C(C)C,hemagglutinin influenza A/California/07/2009 H1N1,,,,,IC50,> 250 µM
O=C(Cc1ccc2ccccc2c1)N[C@H]1CCOC1=O,ExpR1 (Pectobacterium carotovorum),"cellulase activity, agonist","Pectobacterium carotovorum, single-ExpR1 strain","200 µM, 4 h",reference: OHHL,activation,8%
CC[C@H](C)[C@H](NC(=O)[C@H](CC(C)C)NC(=O)[C@H](CCCNC(=N)N)NC(=O)[C@H](CCCNC(=N)N)NC(=O)[C@H](CCCNC(=N)N)NC(=O)[C@H](CCCNC(=N)N)NC(=O)[C@H](CC(C)C)NC(=O)[C@@H](NC(=O)[C@@H](NC(=O)[C@@H](NC(=O)[C@H](CC(C)C)NC(=O)[C@H](CCCNC(=N)N)NC(=O)[C@H](CO)NC(=O)[C@@H](N)CO)C(C)C)[C@@H](C)CC)[C@@H](C)CC)C(=O)N[C@@H](CO)C(=O)N[C@@H](CCCNC(=N)N)C(=O)N[C@@H](CCCNC(=N)N)C(=O)N[C@@H](CCCNC(=N)N)C(=O)N[C@@H](CCCNC(=N)N)C(N)=O,ESKAPE pathogens,,,range over most pathogens,,MIC,1 to 4 µM

# Some of these lines once more:
SMILES,tested on,assay,test system,conditions,how to read,measurement,result
"COCCC1=C(C(=O)OC)C(c2ccc(Cl)cc2C)C2=C(CC(c3ccc(OC)c(OC)c3)OC2=O)N1 (single isomer, unassigned)",J774.A1,cytotoxicity,,,,EC50,> 20 µM
Nc1ncnc2c1ncn2[C@@H]1O[C@@H]2COP(=O)(O)O[C@H]3[C@@H](O)[C@H](n4cnc5c(=O)[nH]cnc54)O[C@@H]3COP(=O)(O)O[C@H]2[C@H]1O,HFF-1,"RNA sequencing Reactome analysis, item: Reactome R-HSA-68877 mitotic prometaphase",,with: West Nile virus infection,"reference: West Nile virus infected cells, upregulated pathway",pathway fold enrichment,3.39
